Experimental data of several laboratories.
Each line is one published result; not all experiments were run side by side. Numbers after ± are the reported error.
Cell line: HUVEC

Compound	test	conditions	quantity	value
O=C(Cc1ccc(OCc2ccccc2)cc1)NC1(C(=O)O)CCN(C(=O)c2ccc(-c3cccc(Cl)c3)cc2)CC1	cytotoxicity	3 days	IC50	> 100 µM
C[C@@H]1Cc2cc(C(=O)C3=C(O)C(=O)N(CCc4ccccc4)[C@@H]3c3cccc(Oc4ccccc4)c3)ccc2O1 (mixture of isomers)	MTT	up to 100 µM, 24 h, serum-free, 0.05% BSA	viability	> 75%
CNC(=O)c1c(C)oc2cc(Oc3ncnc4cc(OC)c(OCCCCCCC(=O)NO)cc34)ccc12	cell growth or viability, ATP luminescence	72 h	IC50	3.44 µM
C[C@@H]1Cc2cc(C(=O)C3=C(O)C(=O)N(CCc4ccccc4)[C@@H]3c3cccc(Br)c3)ccc2O1	MTT	up to 100 µM, 24 h, serum-free, 0.05% BSA	viability	> 75%
C[C@@H](c1ccn(Cc2ccc(Cl)cc2Cl)n1)[C@](O)(Cn1cnnn1)c1ccc(F)cc1F	CCK-8	1 to 64 µg/mL, 24 h	viability	not toxic
Oc1ccccc1/C=N/NC(=S)Nc1ccccc1	cell growth or viability, CCK-8	24 h	IC50	> 16 µg/mL
CC(C)(C)n1cc(CN(Cc2cn(CC(=O)O)nn2)Cc2cn(C(C)(C)C)nn2)nn1	cellular uptake, LC-ESI-MS/MS	200 µM, 10 min, added: CuSO4 100 µM and ascorbate 500 µM	intracellular concentration	1 ± 0.1 µM
Oc1ccccc1/C=N/NC(=S)Nc1cc(C(F)(F)F)cc(C(F)(F)F)c1	cell growth or viability, CCK-8	24 h	IC50	15.9 µg/mL
CC(=O)NCCC(=O)N[C@@H](CCCNC(=N)N)C(=O)NCC(=O)N[C@@H](CCC(=O)O)C(=O)N[C@@H](Cc1ccccc1)C(=O)N[C@H](C(=O)NCC(=O)O)C(C)C	LC-MS	5000 µM, 48 h, glycine-terminated peptide	peptide remaining	26%
CC(C)(C)n1cc(CN(Cc2cn(CCOCCOCCOCCOCCOCCO)nn2)Cc2cn(C(C)(C)C)nn2)nn1	cellular uptake, LC-ESI-MS/MS	200 µM, 10 min, added: CuSO4 100 µM and ascorbate 500 µM	intracellular concentration	10.8 ± 0.3 µM
